Measured values of several laboratories.
± marks the error that the study gave. Converted amounts (≈) assume the structure as drawn.

Substance	cell line	test	system	setting	scale	quantity	value
NNC(=O)Cn1c2ccccc2c2cn[nH]c(=O)c21	MCF7	RT-PCR, measured: AKT		5 µM, 48 h, normalised to β-actin	relative to: untreated	fold change	0.283
[Met(O)35]Aβ42	rat primary hippocampal neurons			3 µM, 72 h	relative to: medium-treated	dendritic spine density	~70%
leucinostatin F	MDA-MB-231 resistant	sulforhodamine B		48 h		GI50	> 0.1 µM
YPKPVYIPQPRPPHPRL	Escherichia coli T7 Express LysY/Iq	bacterial growth, intracellular expression, IPTG induction	peptide	7.2 h, 37 °C	more negative = more potent	SAMP-Dep slope	-15 M⁻¹ min⁻¹
Cc1sc2c(c1C)C(c1ccc(Cl)cc1)=N[C@@H](CC(=O)OC(C)(C)C)c1nnc(C)n1-2	rat cardiac fibroblasts	MTT		0.2 µM, 1 h pretreatment then 12 or 24 h, with: angiotensin II		cell proliferation	inhibited
COc1ccc(C(=O)O[C@H]2[C@H](O[C@@H]3[C@@H](OC(C)=O)[C@H](O[C@H]4C[C@H]5[C@@H]6CC=C7C[C@@H](O)CC[C@]7(C)[C@H]6CC[C@]5(C)[C@@]4(O)[C@H](C)C(=O)CCC(C)C)OC[C@@H]3O)OC[C@@H](O)[C@@H]2O)cc1	CHO NPC1-/- (M12)			concentration not given	relative to: wild-type CHO	antiproliferative activity change	no effect
CNC(=O)c1ccc(N2C(=S)N(c3ccc(C#N)c(C(F)(F)F)c3)C(=O)[C@]23CCOC3)cc1F	LNCaP	PSA expression, antagonist		1 day, charcoal-stripped serum 3 days, with: 1 nM DHT		Ki	0.02 µM
NC12CC3CC(CC(C3)C1)C2	dendritic cells	flow cytometry		10 µg/mL, 24 h	relative to: untreated cells	IL-4 expression	increased
amyloid beta-42 Met35-sulfone	rat primary hippocampal neurons	LDH release		10 µM, 48 h	relative to: medium control	viability decrease	23 ± 3%
CC(C)c1cc2c(c(O)c1O)[C@@]1(C(=O)O)CCCC(C)(C)[C@@H]1CC2	mES-D3 cell	cardiomyocyte differentiation, RT-PCR, measured: MHC		240 h		ID50	6.14 ± 0.575 mg/L (≈ 18.5 µM)
CC(C)c1ccc2c(c1)CC[C@H]1[C@](C)(CN)CCC[C@]21C	WM-115	cell growth or viability, MTS		24 h		IC50	4.79 µM
CCS(=O)(=O)Nc1cccc(C(=C2CCCCC2)c2cnc[nH]2)c1	U2OS	NAADP-evoked Ca2+ release		10 µM, 10 min pretreatment, with: NAADP 100 nM microinjected	relative to: NAADP alone	Ca2+ transient amplitude	41.1 ± 14%
N.N.[Cl][Pt][Cl]	myeloid leukemia cells	trypan blue		48 h		GI50	10 ± 3.7 µM
CO[C@@H]1C[C@@H](C[C@H]2CC[C@H](C)[C@H]([C@@H](C)C(=O)O)O2)O[C@]2(O[C@](C)([C@H]3CC[C@@](C)([C@@H]4O[C@@H]([C@H]5O[C@@](O)(CO)[C@H](C)C[C@@H]5C)C[C@@H]4C)O3)C[C@H]2C)[C@@H]1C	LK sheep red cells			0.03 µM, pH 7.4, 37 °C, unit not given, with: high-K medium	relative to: untreated cells	K+ content change	21
CN[C@@H]1C[C@H]2O[C@@](C)([C@@H]1OC)n1c3ccccc3c3c4c(c5c6ccccc6n2c5c31)C(=O)NC4	MCF7	annexin V/PI		2.5 µM, 24 h		late apoptotic cells	19%
C/C=C1\NC(=O)[C@H]2CSSCC/C=C/[C@H](CC(=O)N[C@H](C(C)C)C(=O)N2)OC(=O)[C@H](C(C)C)NC1=O	SU-DHL10	acetyl-lysine IP mass spectrometry, measured: RBBP4/RBBP7 acetylation		concentration not given	relative to: untreated	acetylated RBBP4 level	2 fold
leucinostatin D	MDA-MB-453	sulforhodamine B		48 h, LAR subtype TNBC		GI50	0.0023 ± 0.0003 µM
COC[C@@H]([C@H](O)[C@H](O)C(=O)NCC[C@H](C)c1nc(/C=C/C[C@@H]2O[C@]3(C[C@@H](O)[C@@H]2C)O[C@H]([C@H](C[C@H](O)[C@H](C)[C@H](O)[C@H](C)/C=C(C)/C(C)=C/C=C/C(C)=C\C#N)OC)[C@H](OP(=O)(O)O)C3(C)C)co1)N(C)C	HEK-293T	Western blot, measured: mTOR, S6K, GSK3, ERK		50 nM, 30 min, with: insulin 100 nM		phosphorylation	increased
pertussis toxin	rat hippocampal pyramidal neurons	measured: pCREB Ser133		500 ng/mL, 18 h pretreatment, with: CRF 40 nM		CRF-induced CREB phosphorylation	no effect
leucinostatin A2	SUM185PE	sulforhodamine B		48 h, LAR subtype TNBC		GI50	0.0044 ± 0.0007 µM

Substance	cell line	test	system	setting	scale	quantity	value
CCN1C(=CC=CC=CC2=[N+](CCCCCC(=O)NCCN3C(=O)CC(SC[C@@H](NC(=O)[C@@H](CCCNC(=N)N)NC(=O)[C@@H](CCCNC(=N)N)NC(=O)[C@@H](CCCNC(=N)N)NC(=O)[C@@H](CCCNC(=N)N)NC(=O)[C@@H](CCCNC(=N)N)NC(=O)[C@@H](CCCNC(=N)N)NC(=O)[C@@H](CCCNC(=N)N)NC(=O)[C@@H](CCCNC(=N)N)NC(=O)[C@@H](CCCNC(=N)N)NC(=O)CNC(=O)[C@H](C)NC(=O)[C@H](CC(C)C)NC(=O)CNC(=O)[C@H](CC(C)C)NC(=O)[C@@H]4CCCN4C(=O)CCCCCNC(=O)[C@@H](CCC(=O)O)NC(=O)[C@@H](CCC(=O)O)NC(=O)[C@@H](CCC(=O)O)NC(=O)[C@@H](CCC(=O)O)NC(=O)[C@@H](CCC(=O)O)NC(=O)[C@@H](CCC(=O)O)NC(=O)[C@@H](CCC(=O)O)NC(=O)[C@@H](CCC(=O)O)NC(=O)CCC(=O)O)C(N)=O)C3=O)c3ccc(S(=O)(=O)[O-])cc3C2(C)C)C(C)(C)c2cc(S(=O)(=O)O)ccc21 (stereo partly drawn)	MDA-MB-231, 3D matrigel culture	confocal imaging		1.5 µM, 20 to 24 h, with: GM6001 100 µM	relative to: no inhibitor	cellular uptake	decreased
O=C1NC(=O)/C(=C/C(=O)N2N=C(c3ccc4ccccc4c3)CC2c2ccc(Cl)cc2)S1 (stereo not drawn)	NCI-60 tumour cell panel	SRB				TGI mean graph midpoint	51 µM
[Met(O)35]Aβ42	rat primary hippocampal neurons	MTT		10 µM, 48 h	relative to: medium control	viability decrease	34 ± 1%
CCCCc1oc2ccccc2c1C(=O)c1cc(I)c(OCCN(CC)CC)c(I)c1	BHK	LBPA-positive structure number and size, confocal morphometry		16 h		effective concentration	2 µM
COC(=O)C1=CO[C@@H](O)[C@@H]2C(CO)=CC[C@H]12	SK-N-SH	neuroprotection, MTT		0.6 µM, 24 h, with: 250 µM H2O2		viability	64.4 ± 0.5%
CNC(=O)[C@H](Cc1c[nH]c2ccccc12)NC(=O)[C@@H](CC(=O)NO)CC(C)C	NIH3T3 in SKOV/NIH microtissues	fibroblast toxicity		chronic toxicity, unit not given	relative to: AC50 ATP over AC50 NanoLUC, day 7	therapeutic window	3.01
CNC(=O)c1ccccc1Oc1nc(Nc2cc(OC)c(OC)c(OC)c2)ncc1Br	HEK293T overexpressing ULK1 and Vps34	measured: Vps34 Ser249 phosphorylation		1 h		inhibitory concentration	~5 µM
O=C(Nc1ccc([N+](=O)[O-])cc1O)Nc1ccccc1Br	human classical CD14++CD16- monocytes	flow chamber		100 nM, 15 min pretreatment, with: TNF-activated HUVEC		monocyte adhesion	no effect
CCCCCCCCCC(=O)NC(CN1CCOCC1)C(O)c1ccccc1.Cl (stereo not drawn)	U2OS	NAADP-evoked Ca2+ release		10 µM, 10 min pretreatment, with: NAADP 100 nM microinjected	relative to: NAADP alone	Ca2+ transient amplitude	43.7 ± 15%
CC(=O)C1=C(O)[C@@H]2[C@H]3c4c[nH]c5cccc(c45)C[C@H]3C(C)(C)N2C1=O	SH-SY5Y cells			10 µM, calcium store depletion, with: human prorenin 4 nM		intracellular calcium increase	no effect
COc1cc(C2=CCCCc3c2ccc(OC)c3OP(=O)(O)O)cc(OC)c1OC	SK-OV-3	cell growth or viability, SRB		48 h		GI50	0.00772 µM
CC(C)[C@@H]1NC(=O)[C@H](CCCCN)NC(=O)[C@@H](Cc2c[nH]c3ccccc23)NC(=O)[C@H](Cc2ccc(O)cc2)NC(=O)[C@@H](NC(=O)[C@H](N)Cc2ccc3ccccc3c2)CSSC[C@@H](C(=O)N[C@H](C(N)=O)[C@@H](C)O)NC1=O	NCI-H720	ELISA		IC50 concentration, 30 min	relative to: unstimulated cells	ERK1/2 phosphorylation	182 ± 35%
CC[C@H](C)[C@H](NC(=O)[C@@H](NC(=O)[C@@H](N)C(C)C)C(C)C)C(=O)N[C@@H](C)C(=O)O	PC-12 (differentiated)	MTT and LDH		concentration not given, MTT 24 h, LDH 48 h, with: staurosporine 0.2 µM		cell death	no effect
COc1cc(/C=C/C(=O)N2CCC=CC2=O)cc(OC)c1OC	MDA-MB-468	RT-qPCR, measured: Bcl-2, Bcl-xL, survivin, XIAP, cIAP		concentration not given, 6 to 8 h		mRNA level decrease	20 to 68%
leucinostatin B2	MDA-MB-231 resistant	sulforhodamine B		48 h		GI50	> 0.1 µM
CC(C)C(=O)O[C@H]1[C@H](C)OC(=O)[C@@H](NC(=O)c2cccc(NC=O)c2O)[C@@H](C)OC(=O)[C@@H]1Cc1ccccc1	mouse splenocytes	IL-5 production, ELISA		0.005 µM, with: ovalbumin	relative to: OVA-stimulated control	inhibition	> 80%
RRRRRRRRGGTTLFF	Jurkat		peptide	concentration not given, spontaneous		cell proliferation	decreased
COc1ccc(CCCOC(Cn2ccnc2)c2ccc(OC)cc2)cc1 (stereo not drawn)	U2OS	NAADP-evoked Ca2+ release		10 µM, 10 min pretreatment, with: NAADP 100 nM microinjected	relative to: NAADP alone	Ca2+ transient amplitude	12.4 ± 8.9%
CN1C(=CC=CC=CC2=[N+](CCCCCC(=O)NCCCC[C@H](NC(=O)[C@H](CCCCNC(=O)COCCOCCOCCNC(=O)[C@H](Cc3ccccc3)NC(=O)[C@H](CCCNC(=N)N)NC(=O)[C@@H]3CCCN3C(=O)[C@H](CC(N)=O)NC(=O)[C@@H]3CCCN3C(=O)[C@H](CO)NC(=O)[C@@H](N)CCCCN)NC(=O)COCCOCCOCCNC(=O)[C@H](CCC(=O)O)NC(=O)[C@H](CCCNC(=N)N)NC(=O)[C@@H]3CCCN3C(=O)[C@H](CCCCN)NC(=O)[C@H](Cc3c[nH]cn3)NC(=O)[C@H](CCCNC(=N)N)NC(=O)[C@@H](N)CCC(N)=O)C(N)=O)c3ccc4ccccc4c3C2(C)C)C(C)(C)c2c1ccc1ccccc21	OE33	flow cytometry		1 h, 4 °C		Kd	0.023 µM
